# Published values pooled from the literature.
# Every numbered part comes from another study and shows a few of its results, in no order.

# Block 1
# Target: Interferon regulatory factor 5, full length, phosphomimetic (IRF5, Homo sapiens, UniProt Q13568-2, residues 1-514, K96S/S451D/S453D/S456D/S462D)
# Technique: protein-binding microarray
# Molecule type: double-stranded DNA, one strand shown
# Sample: in vitro
# Concentration: 250 nM
# Setting: 60-bp whole probe
# Together with: salmon DNA 0.4 mg/ml
# Reference: random background probes
# Reading: higher = stronger binding
# Constant ends, left off below: GCCTAGCAC … GTCTTGATTCGCTTGACGCTGCTG
Sequence,log fluorescence [z-score]
TTCCATTTCTGTTTTTGCTTGTGCTAG,3.78
CTTTTTCCCTATTATATATATGTGCTA,1.98
GACGGACTGGACTTTCGGGAAGTGCTA,4.53
GACGGTTCCCTTTTCCTGAGGTGCTAG,0.386
TCAACACTGGTTTTTACACTGTGCTAG,0.398
AGCATCTTCAAGACTCATAATGTGCTA,0.376
GTCGGTATCCTTTTCCTGACGTGCTAG,0.726
ACACTTTCCCCTTCCTAGTTGTGCTAG,2.39
TTAGGTATCCTACCGCTTTAGTGCTAG,-0.154
TCAGATATCAGTCTCGATTAGTGCTAG,1.97
GACGGTTTCGGTCTAGGGACGTGCTAG,9.65
TTAGATCTGGGGTATCGATTAGTGCTA,2.11
GACGGACAGCTTTTCCTGACGTGCTAG,-0.239
TCACTTTCCACTTGTCTTACTGTGCTA,2.3
TCACTCACCTAGTTTCATACTGTGCTA,2
TTAGATCTCATTTTCGATTAGTGCTAG,6.92
GACGATTCCAGTTTAGAGACGTGCTAG,0.0525
GACGGTTTCGGACTGGGCACGTGCTAG,3.74
GACGGTATAGGGTATCGGGACGTGCTA,0.516
TGTGCTTTCCTGATGGTTTTGTGCTAG,0.692
TCATAACTCAAGATTCCTACTGTGCTA,0.273
TTGCCTCTGCTGCTGGCCGCGTGCTAG,-0.466
TTAGGTTTCGGGACTGGGTTAGTGCTA,5.95
GCCGATATCGGGTATCGAGACGTGCTA,3.9
GACGGTTTCGATTATCGGGACGTGCTA,9.14

# Block 2
# Target: Hepatocyte nuclear factor 3-alpha (Foxa1, Mus musculus, UniProt P35582, residues 1-468, full length assumed)
# Chain of UniProt P35582 (whole entry, looked up): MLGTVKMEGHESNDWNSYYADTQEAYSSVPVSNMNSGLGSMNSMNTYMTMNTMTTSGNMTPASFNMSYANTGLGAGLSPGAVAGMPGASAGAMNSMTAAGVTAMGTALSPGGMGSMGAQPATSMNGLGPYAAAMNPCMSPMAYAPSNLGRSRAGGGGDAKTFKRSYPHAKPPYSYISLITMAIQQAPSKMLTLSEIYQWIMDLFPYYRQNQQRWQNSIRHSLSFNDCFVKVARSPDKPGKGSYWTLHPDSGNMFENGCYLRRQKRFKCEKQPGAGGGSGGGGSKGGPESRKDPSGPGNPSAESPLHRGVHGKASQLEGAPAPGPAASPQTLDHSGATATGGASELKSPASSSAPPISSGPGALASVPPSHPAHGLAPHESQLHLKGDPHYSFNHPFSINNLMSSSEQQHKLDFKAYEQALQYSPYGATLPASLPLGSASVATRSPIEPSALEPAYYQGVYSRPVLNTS
# Technique: EMSA with sequencing
# Molecule type: double-stranded DNA, one strand shown
# Sample: in vitro
# Concentration: 10 and 20 nM
# Setting: whole designed probe, mean of two concentrations, ends assumed
# Reference: negative control set to 0
# Reading: higher = stronger binding
# Constant ends, left off below: GTGAGCGGTGCCCATTGATGGGGAAC … TTTCACTGGGATCGTGGGGAC
Sequence,normalised bound fraction
CTATGTGCTGCCCCCAGAGGTGGAGTGTACAGAGGCAGGCAGGCTTCCTTGAGCTGCAGTGAGTTCCACCCAGTTTGAGCTTCCTGGCTGCTTAGATTACCTACTCAAGCCTCAGCAATGGCGACGCCCCTCCCTCAGCCTGGCTGCTGTCTTGCAGTTAGATCTCAGACTGCTGTGCCAGCAGTGAGCAAGG,-0.0618 ratio
ATTAGTTCATGCCAGGCAGGGTTTGACCAAAACCTTGGACTCACTCCTGTCTGCTTTCCTTCAGTGACTAAGAGGATTCCTGAGATGGATGTGCAATCTTGAAGAGATTACTTTCCTCCATGGGAATGTACTTCTGGCTTCCACTCCTCAGCTGCTGCTGCTAAGCCAGTGAGATAGATGGTGGTTTGGAAAC,-0.024 ratio
ATAAATGAGATTCTTTGAATCTACATAACTGGTCAAGATAATAAATGCATTAGGAATTCCCAGAGGATAGGCAGTTTGGGACTGAGATCACTGTGTAAACATGAAGATGCAGGTTGAAGTAGACTTTTATTAAAATTTGAGCTAAAGTGGATAAGGTTCAGATAGACTACAGTATGGGGTGGACACTGTATTA,0.457 ratio
AGATGGCCAACTGGCACTTTTATAATTTTTAAAAGAGCTGACAATTAAAAAGATGTGGGATGGGGGAAAATAAAGAGAATTCCTCCCTAAAAAAGTAAACAAGTACTAATTTTTTTATTATTTGGGTGATCAGTGCTAATCAGATTGACTTTATTTGGAGGCCCTGAGAACCACATGGTACCAAAAATCCAGA,0.4 ratio
GGACACAGCCAGAGGCCATGAGTGCTCAGGAGTGCCATAAACTGTGATTTTGAGACTGATAAGGCCAGGCTAAACTGGGTGTGTCTAGCTTGTTGTTTGCCTTTTTATATTTGAGGCCTATAAAAAAATAGTGAGAAAATAGCAAGATGCCCAGGAGACAGGTGATCTGATTCAGCCAGGGGGTGGGAGGTGG,0.0649 ratio
AGGTGAATTGGCTGCTTCCATCCTGGCTTGGAACTTCAGACATAGAAGCCTTGGGACTTTCTCTGACTCATGCCAGGACTTTCTCCAGATTCAGCAAACAAGCATCTCTGTGGATCACGTGACCTTAGCCAGGGATGTTGGTGAAACTGTGTGTTGGTCTAGGTACCTAGCCCATGCTAGGTGCTCATCGAAT,0.0853 ratio

# Block 3
# Target: RNA binding protein fox-1 homolog 2, RRM domain, GST-SBP tag (RBFOX2, Homo sapiens, UniProt O43251-10, residues 100-194)
# Technique: RNA Bind-n-Seq
# Molecule type: RNA
# Sample: in vitro
# Concentration: 365 nM
# Setting: natural RNA segment, single round, ends assumed
# Reference: no-protein control
# Reading: higher = stronger binding
# Constant ends, left off below: GGGAGUUCUACAGUCCGACGAUC … UGGAAUUCUCGGGUGCCAA
# Residues (chain): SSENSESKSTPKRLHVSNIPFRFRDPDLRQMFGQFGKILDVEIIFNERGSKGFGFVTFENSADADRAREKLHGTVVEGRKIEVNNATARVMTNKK
Sequence,RBNS enrichment (R)
CAGCAGGGGGCACUGUCCCAGCCCUCUCUGCCCCAGCCAGGCACAGUGGCCUCUAGAGGGUGGUCCUGUAGACCGCACCUUUUAGAGUCGAGGCCUCUGUGGUUGUGCCG,0.361
UGCAAAACAGGAGCCAGCCUGGGCUCUGUGCCUACCUCAAGGGGAGCUGGGGGUUGGGGGGACUGACCCUCCCCAGGGAGGUCUUACAAGUAGUGUGACCAGUCUUUUGU,0.696
ACAUGAUGUUCAUUCUGUAAAUAUACAUGCAGACAGGUCAUGUACUAAUCCUAGUCCUUUUCCUGAGGUAGAUUUUAAACAGUAUUUUUAAAGUCCAAGACAUAGGUUUU,0.39
AACACUUAGCUGGCCACCGCUUUAAUCUGGCCCCUUUGGGAAAGCGAAAAUCCCGAUCACAUUGGACAUCGGCAAAGGCGUGCCAUAAAGAGCGGCCCACAGUCAUGCUA,0.372
AUAUUGACAAGCUAGGACACCUGUGGUAUCUUUAAUUGUAUCUCCUUCAGAAGUUUGCUUCUUAUGGUAUAAUAAAGUAUGGAAGAAUAUUGAGUAUAUGUUUACUCUGG,0.348
AAGUCAGACAUGGCUCUAAAGAGCUUCCUAAGAGACUUCCCGAGAGAGAGACAAAAGUGUUUGUUUGUUUUGUUUCCAGGAGCUUGUCAAAUAAACCAAUGAAAAAGCUU,0.505
GCAGCUUUUUAUGGUGUUUAAUCUAAUACACUUAAGCUGCAGUCCCAAAACUAGGGGUCCGUCAGUCUUGGAGACUAUGGGAGCCUCUGCACCCAGGGAAAAUGUUACCC,0.631
GGCCUAGAUGUCGUGUUUUGGAUGCUGUGUUUUCAAUAAAUGCCUCUGGGGCCCUGCUUUUACCCGCUGGCGUCAGGUGCCGCGUCUUUCUUCUUUUUUCUUUCUUUCAG,0.504
AAAAAUGUGAUAUUCUUUGGACCACUUUUUUAAUUUAUAUAAGCCUUAAUGAACAGUGUCUAUACAUUUGCAUACACACACCCCCACCCCAGAGUGUUCUCAGUAUGUCA,0.582
UGGGUCAUCGGGGCUCACUGCCUCCUGCCCUUCUCUCCUGUCUGACCCCCACUUAGCCCUUCUCUCCUUGCAGCCUAGCAGUUUAUAGUUCUGAGAUGGAAAGUUGAAGG,0.323
UUUGAUGUGUUUGUUUUUGUAAGAAAUAUGGAGGAACUGAAUUAUAAAGAAAAUAAAAUCCUUCUGUAAUAAUCAAAUAAAGUACUUCCCAUAAUCAAAACCAAAUUGGU,1.14
UGCCAGUGGCCCCCAGACUGUGGGGUUGGGACGCCUGGCCUCUGUGUCCUAGAAGGGACCCUCCUGUGGUCUUUGUCUUGAUUUUUCUUAAUAAACGGUGCUAUCCCCGC,0.727

# Block 4
# Target: Prothrombin, mature alpha-thrombin (F2, Homo sapiens, UniProt P00734)
# Technique: aptamer microarray, sandwich
# Molecule type: DNA with 2'F-ANA
# Sample: in vitro
# Concentration: 200 nM
# Setting: whole 15-mer aptamer, many near background
# Together with: Cy3 exosite-II aptamer, 400 nM
# Reading: higher = stronger binding
# Sequence: GGTTGGTGTGGTTGG
Modification,mean fluorescence intensity
2'F-ANA at 1 4 5 6 7 10 12,64.6 a.u.
2'F-ANA at 1 2 4 5 6 7 8 9 10 12 13 14 15,51.9 a.u.
2'F-ANA at 2 3 4 5 8 10 13 14,48.1 a.u.
2'F-ANA at 1 3 4 5 7 13,49.9 a.u.
2'F-ANA at 2 6 11 12 14,147 a.u.
2'F-ANA at 1 3 4 6 7 8 10 14 15,50.9 a.u.
2'F-ANA at 2 3 4 7 8 10 12 15,322 a.u.
2'F-ANA at 1 3 5 8 9 10 12 13 14 15,48.8 a.u.
2'F-ANA at 1 2 3 4 6 8 9 14,238 a.u.
2'F-ANA at 3 4 6 7 8 9 11 13 14 15,230 a.u.
2'F-ANA at 1 4 5 6 8 14,47.4 a.u.
2'F-ANA at 8 10 13 14 15,119 a.u.
2'F-ANA at 1 2 3 4 6 8 9 12 13,247 a.u.
2'F-ANA at 2 4 5 8 9 10 12 13 14 15,54.2 a.u.
2'F-ANA at 1 2 3 4 7 9 10 12 13,65.3 a.u.
2'F-ANA at 1 4 5 8 9 10 13 14,50.6 a.u.
2'F-ANA at 5 6 7 9 11 12 13 14 15,59.9 a.u.
2'F-ANA at 1 6 10 11 12 13 14,49 a.u.
2'F-ANA at 1 4 5 9 11 13 15,47.9 a.u.
2'F-ANA at 1 2 4 5 15,56.8 a.u.
2'F-ANA at 1 3 4 5 6 7 9 10 11 13 14,49.9 a.u.
2'F-ANA at 2 3 4 7 8 9 12,1010 a.u.

# A few entries again (block 4):
Modification,mean fluorescence intensity
2'F-ANA at 1 2 3 4 7 9 10 12 13,65.3 a.u.
2'F-ANA at 2 4 5 8 9 10 12 13 14 15,54.2 a.u.
2'F-ANA at 1 4 5 6 7 10 12,64.6 a.u.
2'F-ANA at 1 3 4 5 7 13,49.9 a.u.
2'F-ANA at 1 2 4 5 6 7 8 9 10 12 13 14 15,51.9 a.u.
2'F-ANA at 1 3 5 8 9 10 12 13 14 15,48.8 a.u.
2'F-ANA at 1 6 10 11 12 13 14,49 a.u.
2'F-ANA at 1 4 5 9 11 13 15,47.9 a.u.
2'F-ANA at 2 3 4 7 8 10 12 15,322 a.u.
2'F-ANA at 1 2 3 4 6 8 9 14,238 a.u.
